Values quoted from earlier work that unrelated publications cite.
Lines come from different studies, so protocols differ.
B1: CX3CL1, human; sequence looked up; chain QHHGVTKCNITCSKMTSKIPVALLIHYQQNQASCGKRAIILETRQHRLFCADPKEQWVKDAMQHLDRQAAALTRNGGTFEKQIGEVKPRTTPAAGGMDESVVLEPEATGESSSLEPTPSSQEAQRALGTSPELPTGVTGSSGTRLPPTPKAQDGGPVGTELFRVPPVSTAATWQSSAPHQPGPSLWAEAKTSEAPSTQDPSTQASTASSPAPEENAPSEGQRVWGQGQSPRPENSLEREEMGPVPAHTDAFQDWGPGSMAHVSVVPVSSEGTPSREPVASGSWTPKAEEPIHATMDPQRLGVLITPVPDAQAATRRQAVGLLAFLGLLFCLGVAMFTYQSLQGCPRKMAGEMAEGLRYIPRSCGSNSYVLVPV
B2: CCL4; sequence looked up; chain APMGSDPPTACCFSYTARKLPRNFVVDYYETSSLCSQPAVVFQTKRSKQVCADPSESWVQEYVYDLELN

Substance	target or system	assay	test system	setting	scale	measurement	value
B1 (CX3CL1, human)	US28 D15A	binding, radioligand competition				Kd	0.7 nM
YRQSMNNFQGLRSFGCRFGTCTVQKLAHQIYQFTDKDKDNVAPRSKISPQGY (biotin-labelled)			human, plasma			half-life	22 min
SFLLRNPNDKYEPF	oocytes expressing thrombin receptor	maximal 45Ca2+ release	peptide		relative to: alpha-thrombin	concentration ratio	100 fold
ε-poly-L-lysine			bovine cartilage explants			time to full-thickness penetration	≤ 6 h
enfortumab vedotin			mouse ICR SCID			clearance	1.2 mL/h/kg
B2 (CCL4)	US28 wild type	binding, radioligand competition				Kd	1.7 nM
pegcetacoplan			New Zealand white rabbit	subcutaneous, 1, 7, 28 mg/kg/day daily, 6 months		NOAEL	> 28 mg/kg/day
neurotensin	NTS1 Y347A			concentration not given		binding	no binding

For quick reference, copied from above:
Substance	target or system	assay	test system	setting	scale	measurement	value
B2 (CCL4)	US28 wild type	binding, radioligand competition				Kd	1.7 nM
